Published values gathered from unrelated publications.
Compare with care: the assays were run in different laboratories. ± marks the error that the study gave.
Cell line: Vero

Structure (SMILES)	effect on	technique	matrix	time	CC50
CN(C)c1ncnc2c1ncn2[C@@H]1O[C@H](CCl)[C@@H](NC(=O)[C@H](N)CSC(c2ccccc2)c2ccccc2)[C@H]1O	cell growth or viability	MTT			39.8 µM
Cc1ccccc1S(=O)(=O)N1CCCC2(C1)Nc1cccnc1N=C2NC1CCCC1 (centres unmarked)				72 (unit not given)	45 µM
Nc1nc(=O)n([C@@H]2O[C@H](COCc3ccccc3)[C@@H](OCc3ccccc3)[C@H](OCc3ccccc3)[C@H]2I)cc1Br		MTT	DMEM with 10% FBS	72 h	> 50 µM
CC(C)C(=O)OC[C@H]1O[C@@](C#N)(n2ccc(N)nc2=O)[C@H](O)[C@@H]1O	cell growth or viability				76.4 µM
CCC(C)C1OC2(CCC1C)CC1CC(C/C=C(\C)C(OC3CC(OC)C(OC4CC(OC)C(O)C(C)O4)C(C)O3)C(C)/C=C/C=C3\COC4C(O)C(C)=CC(C(=O)O1)C34O)O2 (centres unmarked)	cell growth or viability	MTS		48 h	13.4 µM
COc1ccc(-c2cnc3[nH]cc(C#Cc4cccnc4)c3c2)cc1OC	cell growth or viability	resazurin			58.9 µM
C[C@@H]1O[C@@H](n2ccc(=O)[nH]c2=O)[C@H](I)[C@H](OCc2ccccc2)[C@H]1OCc1ccccc1		MTT	DMEM with 10% FBS	72 h	> 50 µM
O=C(CCOCC(COCCC(=O)NC(Cc1c(-c2cc(C(=O)O)cc(C(=O)O)c2)[nH]c2c(-c3cc(C(=O)O)cc(C(=O)O)c3)cccc12)C(=O)O)(COCCC(=O)NC(Cc1c(-c2cc(C(=O)O)cc(C(=O)O)c2)[nH]c2c(-c3cc(C(=O)O)cc(C(=O)O)c3)cccc12)C(=O)O)COCCC(=O)NC(Cc1c(-c2cc(C(=O)O)cc(C(=O)O)c2)[nH]c2c(-c3cc(C(=O)O)cc(C(=O)O)c3)cccc12)C(=O)O)NC(Cc1c(-c2cc(C(=O)O)cc(C(=O)O)c2)[nH]c2c(-c3cc(C(=O)O)cc(C(=O)O)c3)cccc12)C(=O)O (centres unmarked)				24 (unit not given)	> 50 µM
Cc1cc(-n2c(=O)ccc3cnc4[nH]ccc4c32)ccc1F	cell growth or viability	resazurin			> 60 µM
CC(C)(C)[Si](C)(C)OC[C@H]1O[C@@H](n2cc(C#N)c(=O)[nH]c2=O)[C@H](I)[C@@H](O[Si](C)(C)C(C)(C)C)[C@@H]1O[Si](C)(C)C(C)(C)C		MTT	DMEM with 10% FBS	72 h	76.3 µM
NC(=O)c1cc(N2CCOCC2)ccc1OCCc1cccc(F)c1					> 100 µM
CC(C)(C)[Si](C)(C)OC[C@H]1O[C@@H](n2cc(F)c(=O)[nH]c2=O)[C@H](I)[C@@H](O[Si](C)(C)C(C)(C)C)[C@@H]1O[Si](C)(C)C(C)(C)C		MTT	DMEM with 10% FBS	72 h	> 25 µM
Cc1ccccc1-n1nnnc1Sc1ccc(C(=O)c2ccccc2)cc1[N+](=O)[O-]				24 h	> 25 µM
CC(C)CC(NC(=O)OCc1ccccc1)C(=O)NC(CC1CCNC1=O)C(=O)C(=O)NC1CC1 (centres unmarked)				5 (unit not given)	> 250 µM
O=c1[nH]c(=O)n([C@@H]2O[C@H](COCc3ccccc3)[C@@H](OCc3ccccc3)[C@H](OCc3ccccc3)[C@H]2I)cc1Cl		MTT	DMEM with 10% FBS	72 h	> 50 µM
CCCCCCCCCCCC1CC(=O)NC(CC(N)=O)C(=O)NC(Cc2ccc(O)cc2)C(=O)NC(CC(N)=O)C(=O)NC(CCC(N)=O)C(=O)N2CCCC2C(=O)NC(CC(N)=O)C(=O)NC(CO)C(=O)N1 (centres unmarked)		MTT		24 h	136 ± 11 µg/mL
O=C(N[C@@H](Cc1ccccc1)C(=O)N[C@@H](C[C@@H]1CCNC1=O)C(O)S(=O)(=O)O)OCc1ccccc1 (some centres unmarked)				5 (unit not given)	184 ± 4.8 µM

Repeated from above:
Structure (SMILES)	effect on	technique	matrix	time	CC50
Cc1ccccc1S(=O)(=O)N1CCCC2(C1)Nc1cccnc1N=C2NC1CCCC1 (centres unmarked)				72 (unit not given)	45 µM
